Measured values gathered from unrelated publications.
Protocols differ between the studies behind these lines. “And” joins repeats or separate records; there may be more than shown. ± marks the error that the study gave.

O=C1NC2(CC2)COc2ncc(F)cc2[C@H]2COCCN2c2ccn3ncc1c3n2
revertant colonies (Salmonella typhimurium; Ames test; TA97a; 5000 µg/plate, 48 h, together with: rat liver S9): 92 ± 21 revertants/plate

Nc1ncc(-c2cc(-c3cnn(CC(F)(F)F)c3)ncc2F)nc1C(=O)NC1CNCC(F)C1 (stereo not shown)
remaining binding (CSK; KINOMEscan; 1 µM; relative to: DMSO control): 100%

CNS(=O)(=O)Nc1nccc(Cc2c(C)c3ccc(Oc4ncccc4F)cc3oc2=O)c1F
IC50 (AN3-CA; cell viability, CellTiter-Glo; 7 days): 0.0324 µM

CCN(CC)CC#CCNc1ccnc2cc(Cl)ccc12
revertants (Salmonella typhimurium; mini-Ames test; TA100; 62.5 µg/well, without S9): 24 revertants/well and 22 revertants/well

COC(=O)Nc1nc2cc(C(O)c3ccc(F)cc3)ccc2[nH]1 (stereo not shown)
revertants (Escherichia coli; Ames preincubation test; WP2 uvrA; 218.8 µg/plate, without S9): 41.3 revertants/plate

Cc1ncsc1-c1ccc(C(C)NC(=O)C2CC(O)CN2C(=O)C(NC(=O)CCCCCCCCCCN2CCCC(Nc3ncc(Cl)c(Nc4ccccc4S(=O)(=O)C(C)C)n3)C2)C(C)(C)C)cc1 (stereo not shown)
log2 fold change (22Rv1; RNA-seq, refers to: MYNN mRNA; concentration not given; relative to: DMSO): -1.04

O=C1C2CC3CC1CC(C(=O)N1CCN(c4ccc([N+](=O)[O-])c5ncccc45)CC1)(C3)C2
revertant colony count (Escherichia coli; Ames test; WP2 uvrA pKM101; 0.13 µg/well, with S9 activation): 27 colonies/well

CC(C(=O)O)c1nn(C)c2nc(N)[nH]c(=O)c2c1=O (stereo not shown)
intracellular accumulation (Escherichia coli; LC-MS/MS; BW25113; 100 µM, 10 min, 37 °C): 4.32 ± 0.6 µM

COC1CN([C@H]2CC[C@H]([C@@]3(C)Oc4c(Cl)cc(C(=O)NCc5c(SC)cc(C)[nH]c5=O)c(C)c4O3)CC2)C1
log2 fold change (RNA-seq, refers to: FMNL2; human, whole blood; dose not given, 24 h; relative to: pretreatment baseline): 1.63

Cc1n[nH]c2nc(N)[nH]c(=O)c2c1=O
intracellular accumulation (Escherichia coli; LC-MS/MS; BW25113; 100 µM, 10 min, 37 °C): 14.9 µM

CC(C)OCCOCc1ccc(OCC(O)CN(N=O)C(C)C)cc1 (stereo not shown)
revertant fold increase (Salmonella typhimurium; Ames test; TA1535; 1580 µg/plate, 30 % hamster S9; relative to: solvent control): 16.1 fold

CCOC(=O)Cc1n[nH]c2nc(N)[nH]c(=O)c2c1=O
intracellular accumulation (Escherichia coli; LC-MS/MS; BW25113; 100 µM, 10 min, 37 °C): 6.76 ± 1 µM

Nc1nc2cc(C(=O)c3ccc(F)cc3)ccc2[nH]1
revertants (Escherichia coli; Ames preincubation test; WP2 uvrA; 39.0 µg/plate, without S9): 41 revertants/plate

Some of these lines once more:
CNS(=O)(=O)Nc1nccc(Cc2c(C)c3ccc(Oc4ncccc4F)cc3oc2=O)c1F
IC50 (AN3-CA; cell viability, CellTiter-Glo; 7 days): 0.0324 µM
